Published values of several laboratories.
± gives the spread as reported.
LGALS3: Galectin-3 (LGALS3, Homo sapiens, UniProt P17931)

CCCCCCSc1nc2c([nH]1)c(=S)n(C)c(=S)n2C
remaining activity (Androgen receptor (AR, Homo sapiens, UniProt P10275); reporter gene, antagonist, PSA-luciferase; HeLa-A6; 10 µM, 24 h, added: 5 nM dihydrotestosterone; relative to: maximal activity): 89%

CC(C)n1ccc2c(N3CCN(CCCCOc4ccc5c(c4)NC(=O)CC5)CC3)cccc21
activity (D(2) dopamine receptor, long isoform (DRD2, Homo sapiens, UniProt P14416); β-arrestin2 recruitment, Tango; human cells; concentration not given): inactive

CC[C@H](C)[C@H](NC(=O)[C@@H](NC(=O)[C@H](Cc1ccc(O)cc1)NC(=O)[C@H](Cc1ccc(O)cc1)NC(=O)[C@H](CC(N)=O)NC(=O)[C@H](CCC(=O)O)NC(=O)[C@H](Cc1ccccc1)NC(=O)[C@@H](NC(=O)[C@H](CO)NC(=O)[C@H](CCC(=O)O)NC(=O)[C@H](CCCCN)NC(=O)[C@H](Cc1ccccc1)NC(=O)[C@@H](N)CCCCN)C(C)C)C(C)C)C(=O)N[C@@H](Cc1ccc(O)cc1)C(=O)N[C@@H](CO)C(=O)N[C@@H](CO)C(=O)N[C@@H](CCSC)C(=O)N[C@@H](CC(C)C)C(=O)N[C@@H](Cc1ccc(O)cc1)C(=O)N[C@@H](CCCNC(=N)N)C(N)=O
koff (Fibroblast growth factor 14 (Homo sapiens, UniProt Q92915)): 0.0464 ± 0.0072 s⁻¹

C[C@@]1(c2nc(-c3ccc(F)c4cn[nH]c34)no2)CCCN(C(=O)c2ccc(F)nc2)C1
forskolin-stimulated cAMP production (CNR1 (Homo sapiens, UniProt P21554); CNR1-transfected cells; up to 30 µM, added: forskolin): no effect

COC(=O)c1ccc(CNC(=O)[C@@H]2C[C@@H](O)CN2C(=O)CC(C)(C)C)cc1
binding enthalpy (ΔH) (von Hippel-Lindau disease tumor suppressor, with Elongin B/C (VHL, Homo sapiens, UniProt P40337); isothermal titration calorimetry; concentration not given, 25 °C): -3.42 ± 0.12 kcal/mol

COc1ccc(/C=C/C(=O)NC[C@H]2O[C@H](OC)[C@@H](O)[C@@H](O)[C@@H]2O)cc1OC
ΔH (lecB (Pseudomonas aeruginosa, UniProt Q9HYN5); binding, ITC; 25 °C): -5.63 ± 0.21 kcal/mol

CNc1ccccc1C(=O)O[C@H]1C[C@H](n2cnc3c(N)ncnc32)O[C@@H]1COP(=O)(O)OP(=O)(O)O
∆G of ligand binding (Unconventional myosin-Va (Gallus gallus, UniProt Q02440, D297C/G292C/I296C/S293C/V295G); van't Hoff analysis; concentration not given, added: EDTA): -7 ± 0.1 kcal/mol

CC(=O)N[C@H]1[C@@H](O[C@H](C)[C@H](NC(=O)[C@@H](NC(=O)CNC(=O)[C@@H](N)Cc2c[nH]cn2)C(C)C)C(=O)N[C@@H](CO)C(=O)N[C@@H](C)C(=O)N2CCC[C@H]2C(=O)N[C@@H](CC(=O)O)C(N)=O)O[C@H](CO)[C@H](O)[C@@H]1O[C@@H]1O[C@H](CO)[C@H](O)[C@H](O)[C@H]1O
binding stoichiometry (LGALS3; isothermal titration calorimetry; concentration not given, full-length protein): 0.97

COc1ccc(-c2cc(C(F)(F)F)nc(S(=O)(=O)CCCC(=O)Nc3ccc(F)cc3F)n2)cc1OC
cooperativity factor alpha (GLP1R (Homo sapiens, UniProt P43220); affinity cooperativity, allosteric modulator; HEK-293T overexpressing GLP1R; added: GLP-1(9-36)): 247

COc1c(F)c(F)c(C(=O)N[C@H]2[C@@H](O)[C@@H](CO)O[C@@H](S[C@@H]3O[C@H](CO)[C@H](O)[C@H](NC(=O)c4c(F)c(F)c(OC)c(F)c4F)[C@H]3O)[C@@H]2O)c(F)c1F
ΔH (LGALS3; ITC): -12.9 ± 0.717 kcal/mol

CC[C@H](C)[C@H](NC(=O)[C@H](CCCCN)NC(=O)[C@H](CCCNC(=N)N)NC(=O)[C@H](CCCNC(=N)N)NC(=O)[C@H](Cc1c[nH]c2ccccc12)NC(=O)[C@H](CC(C)C)NC(=O)[C@@H](N)CCSC)C(=O)NCC(=O)N1CCC[C@H]1C(=O)N[C@@H](CCC(N)=O)C(=O)N[C@@H](CCSC)C(=O)N[C@H](C(=O)N[C@@H](CC(C)C)C(=O)N[C@@H](CO)C(=O)N[C@@H](Cc1c[nH]cn1)C(=O)N[C@@H](C)C(=O)N[C@@H](C)C(=O)NCC(=O)O)[C@@H](C)O
activity (N-formyl peptide receptor 3 (Homo sapiens, UniProt P25089); CHO-K1; concentration not given): inactive

COc1c(F)c(F)c(C(=O)N[C@H]2[C@@H](O)[C@@H](CO)O[C@@H](S[C@@H]3O[C@H](CO)[C@H](O)[C@H](NC(=O)c4c(F)c(F)c(OC)c(F)c4F)[C@H]3OS(=O)(=O)O)[C@@H]2O)c(F)c1F
binding stoichiometry (LGALS3; ITC; concentration not given, Kd fixed from FP): 1.06

C[C@@H]1NC(=O)[C@H](CC(N)=O)NC(=O)c2cc3ccccc3cc2NC(=O)[C@H](Cc2ccccc2)NC(=O)[C@H](CCCNC(=N)N)NC(=O)[C@@H]2CCCN2C(=O)[C@H]2CCCN2C(=O)[C@H](Cc2ccccc2)NC1=O
antagonist activity (Melanocortin receptor 4 (Mus musculus, UniProt P56450); antagonist, cAMP β-galactosidase reporter; no activity up to, added: MTII): > 100 µM

O=C(O)c1cc([N+](=O)[O-])ccc1NCCCc1ccccc1
current reduction (CFTR (Homo sapiens, UniProt P13569, E1371S); chloride current, pore blocker, inside-out patch clamp; Xenopus oocytes, E1371S; 210 µM, at -120 mV, added: MOPS 80 mM): ~50%

C[C@@H](COc1ccc(F)cc1)C(=O)n1nc(N)c2ccc(CO)cc21
fold activation (CFTR (Homo sapiens, UniProt P13569, G551D); channel activity, potentiator, inside-out patch clamp; CHO cells; 10 µM, added: 3 mM ATP; relative to: untreated): 25 fold

Oc1c(C(Nc2nc3ccccc3s2)c2cccc(OCc3ccccc3)c2)ccc2cccnc12 (stereo not shown)
Hill slope (Genome polyprotein, NS2B-NS3 protease (GP1, West Nile virus, UniProt Q9Q6P4); enzyme activity, inhibitor; 0.1% CHAPS, added: tetrapeptide substrate): 1.19 ± 0.07

CCc1c(-c2ccc3[nH]ncc3c2)cnc(N)c1-c1ccc(O)cc1
IC50 fold change (USP7 (Homo sapiens, UniProt Q93009, V517F); enzyme activity, inhibitor, Ub-AMC; relative to: V517F over wild type): 18 fold

CC(/C=C/C(=O)NO)=C\[C@@H](C)C(=O)c1ccc(N(C)C)cc1
TΔS (HDAC8 (Homo sapiens, UniProt Q9BY41); ITC; Tris-HCl buffer; pH 7.5, 25 °C): -0.3 ± 0.1 kcal/mol

C=CC(=O)Oc1ccc(Cl)cc1C(=O)Nc1ccc([N+](=O)[O-])cc1Cl
protein degradation (Androgen receptor, AR-V7 isoform (AR, Homo sapiens, UniProt P10275); degrader; concentration not given, added: cycloheximide 50 µg/mL; relative to: untreated cells): increased

CCN(CC)C(=O)C1CCCN(C(=O)Nc2ccc3nc(-c4ccco4)c(-c4ccco4)nc3c2)C1 (stereo not shown)
50% occupancy concentration (PPIA (Homo sapiens, UniProt P62937); tryptophan fluorescence quenching; 6 µM PPIA, added: ciclosporin 20 µM): 13.2 µM

O=C(CCCC[C@@H]1SC[C@@H]2NC(=O)N[C@@H]21)NCCCNC(=O)Cn1nc(-c2ccccc2)c2c(Cl)c(-c3ccccc3)nnc21
covalent conjugation (HSP90AB1 (Homo sapiens, UniProt P08238); peptide conjugation): ~2%

O=C(O)C1OC(OC2C(C(=O)O)OC(OC3C(C(=O)O)OC(OC4C(C(=O)O)OC(O)C(O)C4O)C(O)C3O)C(O)C2O)C(O)C(O)C1O (stereo not shown)
binding stoichiometry (Beta-lactoglobulin (LGB, Bos taurus, UniProt P02754, A134V/G80D); isothermal titration calorimetry; concentration not given, pH 2.65, 37 °C, 50 mM KH2PO4; ligand per protein): 5

CCc1cc(C)n2nc(-c3ccc(OCC[18F])cc3)c(CC(=O)N(CC)CC)c2n1
K1 influx rate constant (Tspo (Rattus norvegicus, UniProt P16257); two-tissue compartment model; rat C6 glioma model, tumor; 60 min dynamic PET): 6.39 ± 1.1 mL/cm3/min

CC(C)CCC[C@@H](C)[C@H]1CC[C@H]2[C@@H]3CC[C@H]4C[C@@H](O[C@@H]5O[C@H](COS(=O)(=O)O)[C@@H](O[C@H]6O[C@H](COS(=O)(=O)O)[C@@H](O[C@H]7O[C@H](COS(=O)(=O)O)[C@@H](O[C@H]8O[C@H](COS(=O)(=O)O)[C@@H](OS(=O)(=O)O)[C@H](OS(=O)(=O)O)[C@H]8OS(=O)(=O)O)[C@H](OS(=O)(=O)O)[C@H]7OS(=O)(=O)O)[C@H](OS(=O)(=O)O)[C@H]6OS(=O)(=O)O)[C@H](OS(=O)(=O)O)[C@H]5OS(=O)(=O)O)CC[C@]4(C)[C@H]3CC[C@]12C
Hill coefficient (Heparanase (HPSE, Homo sapiens, UniProt Q9Y251); enzyme activity, inhibitor): 2.98 ± 0.16

O=P(O)(O)O[C@@H]1[C@@H](O)[C@H](O)[C@H](O)[C@H](O)[C@H]1OP(=O)(O)O
Hill coefficient (Itpr1 (Rattus norvegicus, UniProt P29994, del318-332/R504Q); Ca2+ release, agonist; permeabilized DT40 cells): 0.9 ± 0.2

For quick reference, copied from above:
COC(=O)c1ccc(CNC(=O)[C@@H]2C[C@@H](O)CN2C(=O)CC(C)(C)C)cc1
binding enthalpy (ΔH) (von Hippel-Lindau disease tumor suppressor, with Elongin B/C (VHL, Homo sapiens, UniProt P40337); isothermal titration calorimetry; concentration not given, 25 °C): -3.42 ± 0.12 kcal/mol

COc1ccc(/C=C/C(=O)NC[C@H]2O[C@H](OC)[C@@H](O)[C@@H](O)[C@@H]2O)cc1OC
ΔH (lecB (Pseudomonas aeruginosa, UniProt Q9HYN5); binding, ITC; 25 °C): -5.63 ± 0.21 kcal/mol

CNc1ccccc1C(=O)O[C@H]1C[C@H](n2cnc3c(N)ncnc32)O[C@@H]1COP(=O)(O)OP(=O)(O)O
∆G of ligand binding (Unconventional myosin-Va (Gallus gallus, UniProt Q02440, D297C/G292C/I296C/S293C/V295G); van't Hoff analysis; concentration not given, added: EDTA): -7 ± 0.1 kcal/mol

CC(=O)N[C@H]1[C@@H](O[C@H](C)[C@H](NC(=O)[C@@H](NC(=O)CNC(=O)[C@@H](N)Cc2c[nH]cn2)C(C)C)C(=O)N[C@@H](CO)C(=O)N[C@@H](C)C(=O)N2CCC[C@H]2C(=O)N[C@@H](CC(=O)O)C(N)=O)O[C@H](CO)[C@H](O)[C@@H]1O[C@@H]1O[C@H](CO)[C@H](O)[C@H](O)[C@H]1O
binding stoichiometry (LGALS3; isothermal titration calorimetry; concentration not given, full-length protein): 0.97
